{"data": "Measurements from different studies", "organism": "Staphylococcus aureus", "note": "Compare with care: the assays were run in different laboratories. “And” joins repeats or separate records; there may be more than shown."}
{"SMILES": "OB(O)c1ccc(C(F)(F)F)s1", "system": "wild type, Galleria mellonella larvae", "setting": "concentration not given", "quantity": "time of death", "result": "36 h and 6 h and 12 h and 30 h and 18 h and 24 h"}
{"SMILES": "CC(C)CCCCCCCCC/C=C/C(=O)N[C@@H](CC(=O)O)C(=O)N[C@H]1CNC(=O)[C@@H]2CCCN2C(=O)[C@H](C(C)C)NC(=O)[C@@H](CN)NC(=O)CNC(=O)[C@H](CC(=O)O)NC(=O)CNC(=O)[C@H](CC(=O)O)NC(=O)[C@H](CC(=O)O)NC(=O)[C@H]2CCCCN2C1=O", "assay": "broth microdilution", "system": "BR-VRSA strain 880, Mueller-Hinton broth, Mg2+ 10 mg/L", "setting": "16 h, with: Ca2+ 0 mM", "quantity": "MIC", "result": "> 128 µg/mL"}
{"SMILES": "c1ccc(CCNC2CCCc3c2[nH]c2ccc(C4CCCCC4)cc32)cc1 (centres unmarked)", "assay": "broth microdilution", "system": "SG511", "quantity": "MIC", "result": "2 µg/mL"}
{"SMILES": "N=C(N)NCCC[C@H](NC(=O)[C@H](Cc1c[nH]c2ccccc12)NC(=O)[C@H](CCCNC(=N)N)NC(=O)[C@H](CCCNC(=N)N)NC(=O)[C@@H]1CCCN1C(=O)[C@H](CCCCN)NC(=O)[C@@H](N)CCCNC(=N)N)C(=O)N[C@@H](Cc1c[nH]c2ccccc12)C(=O)N[C@@H](Cc1c[nH]c2ccccc12)C(=O)N1CCC[C@H]1C(=O)N[C@@H](CCCCN)C(=O)N[C@@H](CCCNC(=N)N)C(=O)N1CCC[C@H]1C(=O)O", "system": "09057, female BALB/c mice, sepsis, lung", "setting": "intraperitoneal, 20 mg/kg", "quantity": "log bacterial load", "result": "5.53 log(CFU/g) and 5.55 log(CFU/g) and 6.41 log(CFU/g) and 5.83 log(CFU/g) and 6.65 log(CFU/g) and 7.07 log(CFU/g)"}
{"SMILES": "CC1=C[C@@H](C)[C@H]2[C@@H]3C(=O)C(Cl)(Cl)C(=O)[C@H](C)C(=O)O[C@@H](C)/C=C/C=C\\[C@@H](C)[C@@H]3C=C[C@@H]2C1", "system": "Newman compound-resistant mutant Mt6", "setting": "concentration not given", "how to read": "baseline: parent strain", "quantity": "MIC fold change", "result": 8}
{"SMILES": "C=C(NC(=O)c1csc(-c2nc3c(cc2O)-c2nc(cs2)C(=O)NC(C(C)O)C(=O)NC(=C(C)OC)c2nc(cs2)C(=O)NC2c4nc(cs4)C(=O)NC(COC(=O)c4c5c6c(cccc6n4O)COC(=O)C(OC4CC(C)(O)C(N(C)C)C(C)O4)C2OC5)c2nc-3cs2)n1)C(N)=O (centres unmarked)", "system": "MRSA strain 4, vancomycin-induced", "setting": "20 generations", "quantity": "MIC", "result": "0.0156 µg/mL"}
{"SMILES": "CC[C@H](C)[C@@H]1NC(=O)[C@@H]([C@@H](C)O)NC(=O)CNC(=O)[C@H](CC(=O)O)NC(=O)CNC(=O)[C@H](CC(=O)O)NC(=O)CNC(=O)[C@H]2CCCCN2C(=O)[C@@H](NC(=O)[C@H](CC(=O)O)NC(=O)/C=C/CCCCCCCCCC(C)C)CNC(=O)[C@@H]2CCCN2C1=O", "assay": "broth microdilution", "system": "VISA LIM strain 2, Mueller-Hinton broth, Mg2+ 10 mg/L", "setting": "16 h, with: Ca2+ 1.0 mM", "quantity": "MIC", "result": "8 to 16 µg/mL"}
{"SMILES": "CCCCCCCCCCCCCC(=O)N[C@H]1C(=O)N[C@@H](CN)C(=O)N[C@@H](CO)C(=O)N[C@@H](Cc2ccc(O)cc2)C(=O)O[C@H]1C", "system": "SH1000", "setting": "with: cardiolipin, molar ratio 0.5", "quantity": "MIC", "result": "16 µg/mL"}
{"note": "A few entries again:"}
{"SMILES": "C=C(NC(=O)c1csc(-c2nc3c(cc2O)-c2nc(cs2)C(=O)NC(C(C)O)C(=O)NC(=C(C)OC)c2nc(cs2)C(=O)NC2c4nc(cs4)C(=O)NC(COC(=O)c4c5c6c(cccc6n4O)COC(=O)C(OC4CC(C)(O)C(N(C)C)C(C)O4)C2OC5)c2nc-3cs2)n1)C(N)=O (centres unmarked)", "system": "MRSA strain 4, vancomycin-induced", "setting": "20 generations", "quantity": "MIC", "result": "0.0156 µg/mL"}
